Experimental data pooled from the literature.
Several values in a cell are separate wells, animals, samples, runs or records. Numbers after ± are the reported error.
Sequence of UniProt Q61206 (whole entry, looked up): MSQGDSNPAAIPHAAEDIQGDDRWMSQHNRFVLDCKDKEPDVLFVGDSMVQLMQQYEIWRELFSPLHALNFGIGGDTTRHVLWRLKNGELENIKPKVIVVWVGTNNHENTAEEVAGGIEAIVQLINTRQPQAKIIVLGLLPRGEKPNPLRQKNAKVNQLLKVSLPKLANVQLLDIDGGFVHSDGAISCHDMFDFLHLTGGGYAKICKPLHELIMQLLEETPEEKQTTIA
Sequence of UniProt Q00987 (whole entry, looked up): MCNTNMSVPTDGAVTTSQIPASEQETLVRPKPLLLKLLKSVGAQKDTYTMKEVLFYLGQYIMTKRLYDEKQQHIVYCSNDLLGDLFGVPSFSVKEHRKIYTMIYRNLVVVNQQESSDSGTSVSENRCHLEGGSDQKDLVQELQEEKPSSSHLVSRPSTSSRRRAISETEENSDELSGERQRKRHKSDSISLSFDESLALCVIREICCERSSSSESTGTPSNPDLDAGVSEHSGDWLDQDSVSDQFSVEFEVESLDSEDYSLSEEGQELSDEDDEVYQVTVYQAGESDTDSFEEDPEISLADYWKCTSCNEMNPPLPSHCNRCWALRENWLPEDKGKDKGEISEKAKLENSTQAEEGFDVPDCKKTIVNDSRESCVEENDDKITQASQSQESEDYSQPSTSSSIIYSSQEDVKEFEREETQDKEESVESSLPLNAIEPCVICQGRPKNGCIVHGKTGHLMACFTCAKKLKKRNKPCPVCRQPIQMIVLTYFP
Sequence of UniProt Q9UM07 (whole entry, looked up): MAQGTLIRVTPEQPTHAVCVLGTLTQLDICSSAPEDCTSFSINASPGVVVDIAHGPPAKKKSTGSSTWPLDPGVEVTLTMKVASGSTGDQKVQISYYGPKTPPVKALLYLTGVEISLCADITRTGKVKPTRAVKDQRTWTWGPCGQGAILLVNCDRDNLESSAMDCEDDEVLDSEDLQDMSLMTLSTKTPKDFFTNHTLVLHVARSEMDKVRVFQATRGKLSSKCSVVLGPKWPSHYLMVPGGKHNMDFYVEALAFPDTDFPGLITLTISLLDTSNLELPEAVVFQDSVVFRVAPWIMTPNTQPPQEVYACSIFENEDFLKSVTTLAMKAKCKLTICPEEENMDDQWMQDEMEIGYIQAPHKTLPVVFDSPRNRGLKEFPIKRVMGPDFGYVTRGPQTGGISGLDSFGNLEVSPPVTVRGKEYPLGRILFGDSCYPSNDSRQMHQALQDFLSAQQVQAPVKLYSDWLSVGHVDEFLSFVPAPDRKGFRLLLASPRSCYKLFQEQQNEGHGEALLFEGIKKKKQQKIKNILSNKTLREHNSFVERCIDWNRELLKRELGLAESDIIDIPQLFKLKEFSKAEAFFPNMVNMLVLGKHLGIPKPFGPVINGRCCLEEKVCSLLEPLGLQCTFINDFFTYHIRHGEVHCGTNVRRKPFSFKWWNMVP
Sequence of UniProt Q9UH17 (whole entry, looked up): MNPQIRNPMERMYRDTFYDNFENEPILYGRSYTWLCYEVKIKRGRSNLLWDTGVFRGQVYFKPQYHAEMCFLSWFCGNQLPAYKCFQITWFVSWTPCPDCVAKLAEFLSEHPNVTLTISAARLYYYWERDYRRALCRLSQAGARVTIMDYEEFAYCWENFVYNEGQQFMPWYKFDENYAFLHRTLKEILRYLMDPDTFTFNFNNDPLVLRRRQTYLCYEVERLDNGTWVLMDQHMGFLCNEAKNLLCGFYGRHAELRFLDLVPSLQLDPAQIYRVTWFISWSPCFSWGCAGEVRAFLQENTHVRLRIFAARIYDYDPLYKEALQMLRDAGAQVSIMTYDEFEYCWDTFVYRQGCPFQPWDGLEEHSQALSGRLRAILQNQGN
Sequence of UniProt Q6DWJ6 (whole entry, looked up): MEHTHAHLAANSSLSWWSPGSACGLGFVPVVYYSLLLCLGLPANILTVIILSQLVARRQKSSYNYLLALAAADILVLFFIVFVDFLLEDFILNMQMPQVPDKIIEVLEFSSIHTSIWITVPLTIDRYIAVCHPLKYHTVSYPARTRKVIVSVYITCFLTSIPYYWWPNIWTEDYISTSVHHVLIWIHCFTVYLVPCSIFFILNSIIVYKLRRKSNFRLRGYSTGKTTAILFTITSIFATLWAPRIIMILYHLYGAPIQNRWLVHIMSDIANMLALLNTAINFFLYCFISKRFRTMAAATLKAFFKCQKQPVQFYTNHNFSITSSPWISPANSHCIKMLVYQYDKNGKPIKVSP
Sequence of UniProt P0A988 (whole entry, unmodified, looked up): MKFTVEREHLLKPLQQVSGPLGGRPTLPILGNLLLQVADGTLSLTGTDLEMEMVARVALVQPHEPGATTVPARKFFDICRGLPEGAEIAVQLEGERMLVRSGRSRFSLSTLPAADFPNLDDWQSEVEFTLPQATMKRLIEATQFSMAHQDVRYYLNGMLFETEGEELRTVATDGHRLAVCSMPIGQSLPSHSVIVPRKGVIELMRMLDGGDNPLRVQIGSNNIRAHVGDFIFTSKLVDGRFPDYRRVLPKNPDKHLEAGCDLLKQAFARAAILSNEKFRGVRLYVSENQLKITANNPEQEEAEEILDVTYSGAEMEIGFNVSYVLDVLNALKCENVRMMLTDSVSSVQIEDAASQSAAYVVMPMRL
Sequence of UniProt Q14004 (whole entry, looked up): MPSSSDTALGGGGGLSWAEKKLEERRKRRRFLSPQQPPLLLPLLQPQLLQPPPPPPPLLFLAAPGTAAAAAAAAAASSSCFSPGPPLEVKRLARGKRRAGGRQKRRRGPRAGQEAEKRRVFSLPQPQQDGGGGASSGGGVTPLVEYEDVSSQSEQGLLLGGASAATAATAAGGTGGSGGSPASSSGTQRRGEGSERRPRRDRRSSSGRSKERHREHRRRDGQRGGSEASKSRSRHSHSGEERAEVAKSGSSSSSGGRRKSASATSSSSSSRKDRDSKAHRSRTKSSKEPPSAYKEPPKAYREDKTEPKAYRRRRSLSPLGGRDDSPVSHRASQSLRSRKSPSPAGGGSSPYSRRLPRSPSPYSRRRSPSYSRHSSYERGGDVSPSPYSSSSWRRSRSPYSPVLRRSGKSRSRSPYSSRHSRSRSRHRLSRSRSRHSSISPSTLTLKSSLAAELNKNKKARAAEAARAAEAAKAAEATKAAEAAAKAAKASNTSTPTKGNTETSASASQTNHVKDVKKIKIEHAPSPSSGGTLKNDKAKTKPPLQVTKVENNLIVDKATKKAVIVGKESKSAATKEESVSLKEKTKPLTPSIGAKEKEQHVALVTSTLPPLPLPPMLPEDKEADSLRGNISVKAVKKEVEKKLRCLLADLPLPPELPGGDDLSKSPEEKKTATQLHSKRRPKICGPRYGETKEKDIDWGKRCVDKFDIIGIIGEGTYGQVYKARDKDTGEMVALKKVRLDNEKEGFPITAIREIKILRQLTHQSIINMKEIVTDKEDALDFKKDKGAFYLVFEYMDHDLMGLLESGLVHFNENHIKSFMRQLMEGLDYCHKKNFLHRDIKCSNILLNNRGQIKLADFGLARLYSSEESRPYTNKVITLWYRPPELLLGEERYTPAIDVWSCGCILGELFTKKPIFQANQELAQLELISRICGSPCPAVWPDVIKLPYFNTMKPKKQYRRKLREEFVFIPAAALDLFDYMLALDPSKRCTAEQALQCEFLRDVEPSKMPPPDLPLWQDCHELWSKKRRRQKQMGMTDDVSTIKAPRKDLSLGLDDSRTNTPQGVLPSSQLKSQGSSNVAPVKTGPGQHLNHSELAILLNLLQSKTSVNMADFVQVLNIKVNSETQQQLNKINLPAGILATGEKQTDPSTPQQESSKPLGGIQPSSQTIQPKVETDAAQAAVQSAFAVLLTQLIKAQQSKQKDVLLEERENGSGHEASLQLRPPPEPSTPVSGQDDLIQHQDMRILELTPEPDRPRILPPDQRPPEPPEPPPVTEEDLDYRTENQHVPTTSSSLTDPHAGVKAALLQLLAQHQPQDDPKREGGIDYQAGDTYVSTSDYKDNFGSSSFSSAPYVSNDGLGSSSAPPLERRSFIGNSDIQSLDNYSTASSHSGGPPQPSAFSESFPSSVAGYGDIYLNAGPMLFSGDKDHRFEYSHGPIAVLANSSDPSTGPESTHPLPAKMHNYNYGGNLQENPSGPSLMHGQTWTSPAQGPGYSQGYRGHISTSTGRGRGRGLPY
Sequence of UniProt Q9UKI8 (whole entry, looked up): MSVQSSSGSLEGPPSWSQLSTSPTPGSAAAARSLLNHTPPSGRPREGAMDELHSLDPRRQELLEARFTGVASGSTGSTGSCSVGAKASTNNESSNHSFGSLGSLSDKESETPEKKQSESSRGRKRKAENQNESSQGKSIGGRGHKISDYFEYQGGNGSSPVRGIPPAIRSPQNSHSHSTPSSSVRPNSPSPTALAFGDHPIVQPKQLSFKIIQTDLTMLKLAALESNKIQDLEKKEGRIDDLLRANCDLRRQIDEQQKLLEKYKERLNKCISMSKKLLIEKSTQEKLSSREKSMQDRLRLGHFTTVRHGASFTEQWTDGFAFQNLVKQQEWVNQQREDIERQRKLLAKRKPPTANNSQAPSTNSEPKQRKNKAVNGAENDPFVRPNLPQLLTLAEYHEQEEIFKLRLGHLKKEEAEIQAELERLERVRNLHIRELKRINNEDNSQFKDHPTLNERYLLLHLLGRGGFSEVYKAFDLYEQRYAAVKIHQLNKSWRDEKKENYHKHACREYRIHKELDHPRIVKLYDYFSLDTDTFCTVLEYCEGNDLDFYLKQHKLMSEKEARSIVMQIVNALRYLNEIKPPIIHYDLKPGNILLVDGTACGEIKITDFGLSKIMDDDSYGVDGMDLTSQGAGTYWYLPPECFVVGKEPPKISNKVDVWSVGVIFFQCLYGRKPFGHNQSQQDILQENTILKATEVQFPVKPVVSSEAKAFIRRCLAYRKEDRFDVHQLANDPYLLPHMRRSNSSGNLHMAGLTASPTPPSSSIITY

Compound = O=C1NC(=O)c2c1c1cc(F)c[n+]3c1c1c2c2cc(O)ccc2[n]1[Ru-4]312([N]=C=S)[S+]3CC[S+]1CC[S+]2CC3 (stereo not drawn); target = Homeodomain-interacting protein kinase 1 (HIPK1, Homo sapiens, UniProt Q86Z02); assay = enzyme activity; conditions = 100 nM, human enzyme, with: 10 µM ATP; how to read = baseline: untreated; measurement = remaining activity; result = 35%
Compound = Cc1n[nH]c(C)c1CCCOc1cc(OCCCCCCNCCOCCOCCn2cc(CNc3ccc(C(=O)O)cc3)nn2)cc(C(=O)O)c1; target = Transthyretin (TTR, Homo sapiens, UniProt P02766); assay = fluorescent probe exclusion; test system = human serum; conditions = 10 µM, 1 days, ratio 6:00:00; measurement = probe binding remaining; result = 10.3%
Compound = CN(C)CCCSC(=S)N1CCN(C(=O)/C=C/c2coc3ccccc3c2=O)CC1; target = Nucleoprotein (N, Tomato spotted wilt virus, UniProt P25999, Y184A); assay = binding, microscale thermophoresis; conditions = 0.1221 µM; how to read = dose series; measurement = MST response; result = 838 a.u.
Compound = Cc1ccc(NC(=O)CCc2cccc(NC3=CC(=O)N(C4CCC(=O)NC4=O)C3=O)c2)cc1Cl (stereo not drawn); target = Zinc finger MYM-type protein 2 (ZMYM2, Homo sapiens, UniProt Q9UBW7); assay = degrader, quantitative proteomics, refers to: protein abundance; test system = Jurkat; conditions = 1 µM, 4 h; how to read = baseline: DMSO; measurement = log2 fold change; result = -0.416
Compound = CC[C@H](C)[C@@H]1NC(=O)[C@H](CC(C)C)NC(=O)CNC(=O)[C@H](CCCNC(=N)N)NC(=O)[C@H](Cc2c[nH]c3ccccc23)NC(=O)[C@H](CCSC)NC(=O)[C@H](CO)NC(=O)[C@H](CCC(=O)O)NC(=O)[C@H](Cc2ccccc2)NC(=O)[C@H](CC(=O)O)NC(=O)[C@H]([C@@H](C)O)NC(=O)CNC(=O)[C@H](CCC(=O)O)NC(=O)[C@H]([C@@H](C)O)NC(=O)CNC(=O)[C@H](CC(=O)O)NC1=O; target = E3 ubiquitin-protein ligase Mdm2 (MDM2, Homo sapiens, UniProt Q00987); assay = MDM2-ligand binding, inhibitor, AlphaLISA competition; conditions = 0.3906 µM, with: GST-tagged MDM2 ligand; how to read = lower = stronger inhibition; measurement = AlphaLISA signal; result = 5440 a.u. and 5200 a.u. and 5340 a.u.
Compound = CC(C)C[C@H](NC(=O)[C@H]1O[C@@H]1C(=O)O)C(=O)NCCCCN=C(N)N; target = Pro-cathepsin H (Homo sapiens, UniProt P09668); measurement = Hill slope; result = -1.53
Compound = CS(C)(=O)=Nc1ccc(-c2ccc(-c3nc4cc(O[C@@H]5CO[C@H]6[C@@H]5OC[C@H]6O)[nH]c4cc3F)cc2)cc1; target = Melanocortin receptor 4 (MC4R, Homo sapiens, UniProt P32245); assay = calcium signal, antagonist; conditions = 10 µM; measurement = inhibition; result = 17%
Compound = C=CC(=O)Nc1cc(-c2ccc(C(=O)N3CCCC(O)(CC)C3)cc2)ccc1F (stereo not drawn); target = DNA dC->dU-editing enzyme APOBEC-3B, C-terminal domain (Homo sapiens, UniProt Q9UH17); assay = covalent adduct, intact protein MS; conditions = 125 µM, 5 h, 5-fold molar excess; measurement = unmodified protein; result = 47% and 62%
Compound = CC(C)[C@H]1NC(=O)C[C@H]2/C=C/CCSSC[C@@H](NC1=O)C(=O)N[C@H](Cc1cccc3ccccc13)C(=O)NCC(=O)O2; target = Casein kinase II subunit alpha', with CK2 beta (CSNK2A2, Homo sapiens, UniProt P19784); conditions = 10 µM; measurement = inhibition; result = -3.4%
Compound = O=C(N[C@@H]1c2ccccc2C[C@H]1N1CCCC1)c1ccc(-c2ccnc3[nH]ccc23)nc1; target = Cyclin-dependent kinase 13 (CDK13, Homo sapiens, UniProt Q14004); assay = binding, competition with immobilised ligand; conditions = 3 µM; measurement = remaining binding; result = 3.1%
Compound = C#CCCCCOc1ccc2c(c1)CCCN2C(=O)CCl; target = Alcohol dehydrogenase class-3 (ADH5, Homo sapiens, UniProt P11766); assay = mass spectrometry profiling; test system = H460 cell lysate; conditions = 100 µM over 10 µM, UniProt P11766; how to read = baseline: high over low concentration; measurement = reactivity ratio; result = 1.48
Compound = C=CC(=O)NC[C@H](NC(=O)[C@H](CC1CCCCC1)NC(=O)[C@H](CCC(N)=O)NC(C)=O)C(=O)N[C@@H](CC(C)C)C(=O)N[C@@H](Cc1ccccc1)C(=O)O; target = Beta sliding clamp (Escherichia coli, UniProt P0A988); assay = binding, isothermal titration calorimetry; conditions = pH 7.4, 37 °C; measurement = -TΔS; result = 6.9 kcal/mol
Compound = Nc1ccn(C2OC(COP(=O)(O)OP(=O)(O)OP(=O)(O)O)C(O)C2(F)F)c(=O)n1 (stereo not drawn); target = pyrG (Escherichia coli, UniProt P0A7E5, C268A); assay = enzyme activity; conditions = with: UTP 0.20 mM; measurement = Hill coefficient; result = 1.9 ± 0.2
Compound = CC(C)CC(O)(CC(C)C)c1cn(C(=O)N2CCCC2)nn1; target = Platelet-activating factor acetylhydrolase IB subunit alpha2 (Mus musculus, UniProt Q61206); assay = probe labelling, inhibitor, competitive ABPP-SILAC, refers to: Pafah1b2; test system = mouse T cells; conditions = concentration not given, 4 h, single peptide; how to read = baseline: treated over DMSO cells, lower = stronger inhibition; measurement = SILAC activity ratio; result = 1.28 and 1.09 and 1.22 and 1.25 and 1.18
Compound = CC[C@H](C)[C@H](NC(=O)[C@H](CCCNC(=N)N)NC(=O)[C@H](CCCNC(=N)N)NC(=O)[C@H](CC(C)C)NC(=O)[C@H](Cc1ccccc1)NC(=O)CNC(=O)CNC(=O)[C@@H](N)Cc1ccc(O)cc1)C(=O)N[C@@H](CCCNC(=N)N)C(=O)N1CCC[C@H]1C(=O)N[C@@H](CCCCN)C(=O)N[C@@H](CC(C)C)C(=O)N[C@@H](CCCCN)C(=O)O; target = Probable G-protein coupled receptor 139 (GPR139, Homo sapiens, UniProt Q6DWJ6); assay = G protein activation, agonist, BRET, refers to: Gα13; test system = HEK-293T/17; conditions = 40 µM; how to read = baseline: GαoA response; measurement = Emax; result = 8.69% and 6.87%
Compound = CN(C)[C@H]1C[C@@]23CC[C@@]4(O2)C(=CC[C@]2(C)[C@@H](c5ccc6ccncc6c5)CC[C@H]24)C=C3[C@@H](O)[C@@H]1O; target = Serine/threonine-protein kinase tousled-like 1 (TLK1, Homo sapiens, UniProt Q9UKI8); assay = ATP probe labelling, inhibitor, KiNativ profiling; conditions = 0.1 µM; measurement = inhibition; result = -3.9%
Compound = CCn1nc(Cl)c2c1-c1cnc(N)c(c1)O[C@H](C)c1cc(F)ccc1-c1nn(C)cc1C2; target = Insulin-like growth factor 1 receptor (IGF1R, Homo sapiens, UniProt P08069); assay = kinase activity, inhibitor; how to read = baseline: IC50 IGF1R over IC50 ALK; measurement = selectivity ratio; result = 160 fold
Compound = N[C@H](C(=O)N1CCCC1)C1CCN(c2nccc3c(-c4ncc(Cl)cc4Cl)cccc23)CC1; target = Protein-arginine deiminase type-4 (PADI4, Homo sapiens, UniProt Q9UM07); assay = thermal shift; conditions = 0.09521 µM; measurement = melting temperature; result = 53 °C and 53.5 °C

For quick reference, copied from above:
Compound = Cc1n[nH]c(C)c1CCCOc1cc(OCCCCCCNCCOCCOCCn2cc(CNc3ccc(C(=O)O)cc3)nn2)cc(C(=O)O)c1; target = Transthyretin (TTR, Homo sapiens, UniProt P02766); assay = fluorescent probe exclusion; test system = human serum; conditions = 10 µM, 1 days, ratio 6:00:00; measurement = probe binding remaining; result = 10.3%
